Published values collected from several papers.
± marks the error that the study gave.

SMILES | test | test system | conditions | how to read | measurement | value
NC(=O)[C@@H](CCCCNC(=O)CNC(=O)CCC(=O)NCCc1c[nH]cn1)NC(=O)[C@@H](CCC(=O)O)NC(=O)[C@@H](CCCCNC(=O)CNC(=O)CCC(=O)NCCc1c[nH]cn1)NC(=O)[C@@H](Cc1ccc(O)cc1)NC(=O)CN1CCN(CC(=O)O)CCN(CC(=O)O)CCN(CC(=O)O)CC1 [indium-111 labelled] | SPECT | human, CEACAM5-expressing tumours, psoas muscle | intravenous, dose not given, 24 h, added: TF2 pretargeting 150 mg | – | muscle activity concentration | 0.19 %ID/kg
NC[C@@H](C(=O)Nc1ccc(-c2cn[nH]c2)cc1)c1ccccc1 | OECD 405 eye irritation | New Zealand White rabbit, eye | topical, 0.1%, 72 h (day 4) | direction not given | total eye irritation score | 0
CCC1CNC(CC)CN(CC(=O)O)C(CC)CN(CC(=O)O)C(CC)CN1 (stereo not drawn) | pH-potentiometric titration | – | 25 °C, 0.1 M KCl | – | sum log K3 + log K4 | 8
[11CH3]c1ccc2nc(C3CCC3)n(-c3ccc4[nH]ncc4c3)c2n1 | – | standard human adult, spleen | – | – | absorbed radiation dose | 2.4 µSv/MBq
Cn1c(=O)oc2ccc(-c3ccc(CC(C#N)NC(=O)C4CNCCCO4)c(F)c3)cc21 (stereo not drawn) | – | human, plasma | 10 mg once daily, steady state, geometric mean | – | trough concentration | 18.7 ng/mL
Nc1nccc(-c2cn(C3CC3)c3ccccc23)n1 | LC-RAM/HRMS | human male, plasma | oral, 110 mg, 6 h | baseline: total radioactivity | share of radioactivity | 4.08%
COC(=O)c1ccc(-c2cn(Cc3cc(Cl)ccc3O[11CH3])nn2)cc1 | PET/CT | C57BL/6 mouse, heart | 2 min | – | peak uptake | 2.32 %ID/cc
CC(C)C[C@@H]1NC(=O)[C@@H]2CCCN2C(=O)[C@H](CO)NC(=O)[C@@H](NC(=O)[C@H](Cc2c[nH]cn2)NC(=O)[C@H](CO)NC(=O)[C@H](Cc2ccc(O)cc2)NC(=O)[C@H](CC(=O)O)NC(=O)CNC(=O)CN2CCN(CC(=O)O)CCN(CC(=O)O)CCN(CC(=O)O)CC2)CSSC[C@@H](C(=O)N[C@H](C(=O)N[C@@H](Cc2ccc(O)cc2)C(=O)N2CCC[C@H]2C(=O)N[C@@H](CC(=O)O)C(=O)N2CCC[C@H]2C(=O)N[C@@H](CCC(=O)O)C(=O)NCC(=O)NCC(=O)NCC(N)=O)[C@@H](C)O)NC(=O)[C@H](CCCCN)NC(=O)[C@H](Cc2c[nH]c3ccccc23)NC(=O)[C@H](Cc2c[nH]c3ccccc23)NC(=O)[C@@H]2CCCN2C(=O)[C@H](Cc2ccc(O)cc2)NC(=O)[C@H](Cc2ccc(O)cc2)NC(=O)[C@H](CCCNC(=N)N)NC1=O [gallium-68 labelled] | PET/CT | male NOD-SCID mice, heart | intravenous, 3.7 MBq, 90 min | – | SUVmax | 0.58 ± 0.11 SUV
CC/C=C\C/C=C\C/C=C\C/C=C\C/C=C\CCCCOC(CC)C(=O)O (stereo not drawn) | [14C] label | male Wistar rat, urine | oral, 100 mg/kg | baseline: dose | excreted radioactivity | 60%
CC(C)C[C@@H](NC(=O)[C@H](NC(=O)[C@H]1CCCN1)[C@H](C)O)C(=O)N[C@H](Cc1c[nH]cn1)C(=O)N[C@@H](C(=O)N[C@H](Cc1c[nH]cn1)C(=O)N[C@H](CC(N)=O)C(=O)N[C@H](CCCNC(=N)N)C(=O)N[C@H](CCCNC(=N)N)C(=O)N[C@H](CCCNC(=N)N)C(=O)N[C@H](CCCNC(=N)N)C(=O)N[C@H](CCCNC(=N)N)C(N)=O)[C@H](C)O | – | Beagle dog, plasma | oral, 20 mg/kg, single dose | – | MRT | 40 ± 15 h
O=C(NCCCN(CCCCN(CCCNC(=O)c1cccc(=O)n1[O-])C(=O)c1cccc(=O)n1[O-])C(=O)c1cccc(=O)n1[O-])c1cccc(=O)n1[O-].[89Zr+4] | radio-TLC | PBS | 7 d, pH 7.4, 37 °C, added: Ga^3+ 10-fold excess | – | intact complex | 96.4 ± 0.6%
COC(=O)c1ccc2c(c1)NC(=O)/C2=C(\Nc1ccc2c(c1)CCN2C(=O)CN1CCOCC1)c1ccccc1 | – | cynomolgus monkey, plasma | oral, 5 mg/kg | – | AUC(0-t) | 2580 ng·h/mL
CCCCCCCCCCCCCCCC(=O)N[C@@H](CCCCN)C(=O)N[C@@H](CCCCN)C(=O)N[C@@H](CO)C(=O)N[C@@H](CCCNC(=N)N)C(=O)N[C@@H](C)C(=O)N[C@@H](CC(C)C)C(=O)N[C@@H](Cc1ccccc1)C(N)=O | – | cynomolgus monkey, female | 30 mg/kg, day 5 | – | activated partial thromboplastin time | 27.1 ± 1.8 s
COc1cc(-c2nc3ccccc3s2)cc(CN(Cc2ccccn2)Cc2ccccn2)c1O | UV-vis spectrophotometric titration | MeOH-water, MeOH up to 20% | 50 µM, 0.1 M NaCl, HL to L- | – | pKa4 | 10.4
NS(=O)(=O)c1ccc(N2N=C(C(F)(F)F)CC2c2ccc(F)cc2F)cc1 (stereo not drawn) | – | male beagle dog, liver microsomes | 20 µM, pH 7.4 | – | depletion rate | 26.9 pmol/min/mg
O=C(CCCCC[N+]#[C][99Tc-5]([C]#[N+]CCCCCC(=O)N[C@H]1C(O)O[C@H](CO)[C@@H](O)[C@@H]1O)([C]#[N+]CCCCCC(=O)N[C@H]1C(O)O[C@H](CO)[C@@H](O)[C@@H]1O)([C]#[N+]CCCCCC(=O)N[C@H]1C(O)O[C@H](CO)[C@@H](O)[C@@H]1O)([C]#[N+]CCCCCC(=O)N[C@H]1C(O)O[C@H](CO)[C@@H](O)[C@@H]1O)[C]#[N+]CCCCCC(=O)N[C@H]1C(O)O[C@H](CO)[C@@H](O)[C@@H]1O)N[C@H]1C(O)O[C@H](CO)[C@@H](O)[C@@H]1O (stereo partly drawn) | SPECT/CT | nude mouse with U87 MG xenograft | 2 h | – | tumour/non-tumour ratio | 3.09 ± 0.19
CCCC(CCC)NC(=O)c1ccc(OC2OC(C(=O)O)C(O)C(O)C2O)c(OC)c1 (stereo not drawn) | LC-MS extracted ion chromatogram | Sprague-Dawley rat, male and female, pooled plasma | oral, 200 mg/kg, 1 h | – | peak area | 1.15e+07 cps
COc1cc(NC(C)=O)c2c(c1O)-c1c(OC)c(OC)cc3c1C(C2)N(C)CC3 (stereo not drawn) | – | rat heart homogenate | 50 µg/mL, time not given, three freeze-thaw cycles | – | remaining compound | 108 ± 2.9%
COC(=O)C(c1ccccc1Cl)N1CCC2SC(=O)C=C2C1 (stereo not drawn) | LC-MS/MS | human plasma extract | 2 ng/mL spiked, 8 h, room temperature | – | measured concentration | 2.1 ± 0.2 ng/mL
COCCOCCOCCOCCOCCOCCOCCOCCC(=O)NCCCc1cc2cc3nc(cc4[nH]c(cc5nc(c(OC)c1[nH]2)C(=O)C5(C)C)cc4CCc1ccc(C(=O)O)cc1)CC3(C)C | – | water with 5% DMF | room temperature | – | Qy absorption maximum | 672 nm
CC(=O)N[C@H](CC(=O)O)C(=O)N[C@H](Cc1c[nH]c2ccccc12)C(=O)N[C@H](Cc1ccccc1)C(=O)N[C@H](CCCCN)C(=O)N[C@H](C)C(=O)N[C@H](Cc1ccccc1)C(=O)N[C@H](Cc1ccc(O)cc1)C(=O)N[C@H](CC(=O)O)C(=O)N[C@H](CCCCN)C(=O)N[C@@H](C(=O)N[C@H](C)C(=O)N[C@H](CCC(=O)O)C(=O)N[C@H](CCCCN)C(=O)N[C@H](Cc1ccccc1)C(=O)N[C@H](CCCCN)C(=O)N[C@H](CCC(=O)O)C(=O)N[C@H](C)C(=O)N[C@H](Cc1ccccc1)C(N)=O)C(C)C | – | human, statin-treated high-risk CHD, plasma | oral, dose not given, day 13, 0 h, daily dosing, predose | – | trough plasma concentration | < 1 ng/mL
CCOC(=O)c1[nH]c(C)c(/C=C/c2c(I)c(C)c3n2[B-](F)(F)[N+]2=C(C)C(I)=C(C)C2=C3c2cc(OC)cc(OC)c2)c1C | – | THF | – | – | Stokes shift | 544 cm⁻¹
CC(C)[C@H](NC(=O)CNC(=O)[C@H](CCC(N)=O)NC(=O)[C@H](C)N)C(=O)O | – | human, plasma | intravenous infusion, 15 mg/kg/h, 2 h infusion, geometric mean | – | t1/2 | 0.24 h
CC[C@@H](C)[C@@H](NC(=O)[C@@H](CC(C)C)NC(=O)[C@@H](CCCCN)NC(=O)[C@@H](CC(C)C)NC(=O)[C@@H](CC(C)C)NC(=O)[C@H](NC(=O)[C@@H](Cc1c[nH]cn1)NC(=O)[C@@H](CC(C)C)NC(=O)[C@@H](CCCCN)NC(=O)[C@H](NC(=O)[C@@H](CCCCN)NC(=O)[C@@H](CCCCN)NC(=O)[C@@H](CC(C)C)NC(=O)[C@@H](CO)NC(=O)[C@@H](CCCCN)NC(=O)[C@@H](Cc1ccccc1)NC(=O)[C@H](NC(=O)[C@@H](CCCCN)NC(=O)[C@@H](CC(C)C)NC(=O)[C@@H](Cc1ccccc1)NC(=O)[C@@H](CO)NC(=O)[C@@H](CCCCN)NC(=O)[C@@H](Cc1c[nH]c2ccccc12)NC(=O)[C@@H](CCCCN)NC(C)=O)[C@H](C)O)[C@H](C)O)[C@H](C)O)C(=O)N[C@H](CO)C(=O)N[C@H](CO)C(N)=O | circular dichroism | buffer with 50% TFE | 5 °C, at 222 nm | – | mean residue ellipticity | 35500 deg cm²/dmol
CCC(=O)N[C@@H](C)C(=O)OCC(=O)N[C@@H](C)C(=O)O | – | water | pH 4, 65 °C | – | depolymerization half-life | 94 h
CC12CC(c3ccc(S(C)(=O)=O)cc3)C3=C4CCC(=O)C=C4CCC3C1CCC2(O)C(F)(F)C(F)(F)F (stereo not drawn) | – | human, fasted, plasma | oral, 5 mg, [14C]-labelled, single dose, geometric mean | – | apparent oral clearance | 15.1 L/h
CCCCCCCC(=O)OC[C@H](NC(=O)[C@H](CO)NC(=O)CN)C(=O)N[C@@H](Cc1ccccc1)C(=O)N[C@@H](CC(C)C)C(=O)N[C@@H](CO)C(=O)N1CCC[C@H]1C(=O)N[C@@H](CCC(=O)O)C(=O)N[C@@H](Cc1cnc[nH]1)C(=O)N[C@@H](CCC(N)=O)C(=O)N[C@@H](CCCNC(=N)N)C(=O)N[C@H](C(=O)N[C@@H](CCC(N)=O)C(=O)N[C@@H](CCC(N)=O)C(=O)N[C@@H](CCCNC(=N)N)C(=O)N[C@@H](CCCCN)C(=O)N[C@@H](CCC(=O)O)C(=O)N[C@@H](CO)C(=O)N[C@@H](CCCCN)C(=O)N[C@@H](CCCCN)C(=O)N1CCC[C@H]1C(=O)N1CCC[C@H]1C(=O)N[C@@H](C)C(=O)N[C@@H](CCCCN)C(=O)N[C@@H](CC(C)C)C(=O)N[C@@H](CCC(N)=O)C(=O)N1CCC[C@H]1C(=O)N[C@@H](CCCNC(=N)N)C(=O)O)C(C)C | – | chronic HFrEF patients non-paced | intravenous infusion, 0.1 µg/kg/min, 60 min of infusion | – | heart rate | 71.3 ± 13.5 bpm
C[C@]12CC[C@@H]3c4ccc(OCC(=O)N[C@@H](CCCCNC(=O)CN5CCN(CC(=O)[O-])CCN(CC(=O)[O-])CCN(CC(=O)[O-])CC5)C(=O)O)cc4CC[C@H]3[C@@H]1CCC2=O.[177Lu+3] | – | female nude mice, MCF7 xenograft | 4 h post injection | – | tumour uptake | 2.55 ± 0.63 % IA/g
CCN(CC)c1ccc2c(-c3ccc(S(=O)(=O)NCCNC(=O)CN4CCN(CC(=O)[O-])CCN(CC(=O)O)CCN(CC(=O)[O-])CC4)cc3S(=O)(=O)[O-])c3ccc(=[N+](CC)CC)cc-3oc2c1.[64Cu+2] | microPET imaging | athymic nude mice, U-87 MG glioma xenograft | 250 µCi, 1 h post-injection | – | tumour uptake | 6.53 ± 0.48 %ID/g
COc1ccc(/C=C/c2ccc(-c3ccc(C)cn3)nc2)cc1 | TCSPC | toluene | – | – | fluorescence lifetime | 0.79 ns

For quick reference, copied from above:
SMILES | test | test system | conditions | how to read | measurement | value
CCCCCCCC(=O)OC[C@H](NC(=O)[C@H](CO)NC(=O)CN)C(=O)N[C@@H](Cc1ccccc1)C(=O)N[C@@H](CC(C)C)C(=O)N[C@@H](CO)C(=O)N1CCC[C@H]1C(=O)N[C@@H](CCC(=O)O)C(=O)N[C@@H](Cc1cnc[nH]1)C(=O)N[C@@H](CCC(N)=O)C(=O)N[C@@H](CCCNC(=N)N)C(=O)N[C@H](C(=O)N[C@@H](CCC(N)=O)C(=O)N[C@@H](CCC(N)=O)C(=O)N[C@@H](CCCNC(=N)N)C(=O)N[C@@H](CCCCN)C(=O)N[C@@H](CCC(=O)O)C(=O)N[C@@H](CO)C(=O)N[C@@H](CCCCN)C(=O)N[C@@H](CCCCN)C(=O)N1CCC[C@H]1C(=O)N1CCC[C@H]1C(=O)N[C@@H](C)C(=O)N[C@@H](CCCCN)C(=O)N[C@@H](CC(C)C)C(=O)N[C@@H](CCC(N)=O)C(=O)N1CCC[C@H]1C(=O)N[C@@H](CCCNC(=N)N)C(=O)O)C(C)C | – | chronic HFrEF patients non-paced | intravenous infusion, 0.1 µg/kg/min, 60 min of infusion | – | heart rate | 71.3 ± 13.5 bpm
CCC(=O)N[C@@H](C)C(=O)OCC(=O)N[C@@H](C)C(=O)O | – | water | pH 4, 65 °C | – | depolymerization half-life | 94 h
COC(=O)c1ccc2c(c1)NC(=O)/C2=C(\Nc1ccc2c(c1)CCN2C(=O)CN1CCOCC1)c1ccccc1 | – | cynomolgus monkey, plasma | oral, 5 mg/kg | – | AUC(0-t) | 2580 ng·h/mL
